Results from different studies.
Every numbered part comes from another study and shows a few of its results, in no order. Values joined by “and” are separate records of one study, mostly repeats; a detail may differ.
Chain of UniProt Q13153 (whole entry, looked up): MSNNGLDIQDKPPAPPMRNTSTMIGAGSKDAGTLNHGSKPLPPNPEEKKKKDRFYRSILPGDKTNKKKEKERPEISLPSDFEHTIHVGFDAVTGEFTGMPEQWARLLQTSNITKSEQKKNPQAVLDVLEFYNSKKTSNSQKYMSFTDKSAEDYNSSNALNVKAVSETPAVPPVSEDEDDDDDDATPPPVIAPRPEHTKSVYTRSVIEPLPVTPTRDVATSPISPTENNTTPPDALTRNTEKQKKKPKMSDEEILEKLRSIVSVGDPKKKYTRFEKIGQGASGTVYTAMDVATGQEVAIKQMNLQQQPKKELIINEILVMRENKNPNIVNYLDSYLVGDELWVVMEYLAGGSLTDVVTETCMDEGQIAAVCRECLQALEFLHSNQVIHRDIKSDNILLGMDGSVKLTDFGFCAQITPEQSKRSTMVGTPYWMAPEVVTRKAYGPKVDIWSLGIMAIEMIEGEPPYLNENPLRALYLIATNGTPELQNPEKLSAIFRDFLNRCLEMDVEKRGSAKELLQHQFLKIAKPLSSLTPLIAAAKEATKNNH
Chain of UniProt O14965 (whole entry, looked up): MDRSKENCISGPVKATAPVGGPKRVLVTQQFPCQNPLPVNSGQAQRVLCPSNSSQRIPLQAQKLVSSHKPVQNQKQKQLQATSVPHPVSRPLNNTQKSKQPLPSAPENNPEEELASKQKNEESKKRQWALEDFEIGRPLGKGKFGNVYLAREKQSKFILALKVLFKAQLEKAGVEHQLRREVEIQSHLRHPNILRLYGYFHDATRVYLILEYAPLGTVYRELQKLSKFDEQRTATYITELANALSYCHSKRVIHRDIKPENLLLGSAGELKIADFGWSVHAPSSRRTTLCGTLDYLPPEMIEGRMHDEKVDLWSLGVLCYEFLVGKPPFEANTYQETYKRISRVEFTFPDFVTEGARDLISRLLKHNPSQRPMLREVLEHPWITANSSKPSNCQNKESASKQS
Chain of UniProt Q16832 (whole entry, looked up): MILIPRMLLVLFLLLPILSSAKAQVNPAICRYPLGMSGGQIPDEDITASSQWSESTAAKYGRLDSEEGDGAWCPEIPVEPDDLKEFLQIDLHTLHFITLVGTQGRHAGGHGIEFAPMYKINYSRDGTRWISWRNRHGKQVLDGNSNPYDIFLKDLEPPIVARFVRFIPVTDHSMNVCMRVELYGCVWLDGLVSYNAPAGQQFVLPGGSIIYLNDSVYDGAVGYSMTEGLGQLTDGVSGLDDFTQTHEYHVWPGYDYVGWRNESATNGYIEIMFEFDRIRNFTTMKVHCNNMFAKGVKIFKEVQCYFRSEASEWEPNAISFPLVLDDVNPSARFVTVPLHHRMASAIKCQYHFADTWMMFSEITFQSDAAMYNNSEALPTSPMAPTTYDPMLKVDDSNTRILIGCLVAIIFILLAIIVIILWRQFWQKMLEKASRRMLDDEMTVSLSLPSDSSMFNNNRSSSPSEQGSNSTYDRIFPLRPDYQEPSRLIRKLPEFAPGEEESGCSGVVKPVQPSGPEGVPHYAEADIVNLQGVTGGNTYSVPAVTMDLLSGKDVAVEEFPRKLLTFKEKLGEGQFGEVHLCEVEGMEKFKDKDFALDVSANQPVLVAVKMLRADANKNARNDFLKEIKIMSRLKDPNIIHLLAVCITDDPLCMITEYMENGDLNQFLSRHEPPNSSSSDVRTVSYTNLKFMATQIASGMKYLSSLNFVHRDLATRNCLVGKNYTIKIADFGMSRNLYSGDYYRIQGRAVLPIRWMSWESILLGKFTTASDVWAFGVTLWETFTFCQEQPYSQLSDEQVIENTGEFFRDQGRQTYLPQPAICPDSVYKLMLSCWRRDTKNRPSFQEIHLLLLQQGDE
Chain of UniProt Q9P0L2 (whole entry, looked up): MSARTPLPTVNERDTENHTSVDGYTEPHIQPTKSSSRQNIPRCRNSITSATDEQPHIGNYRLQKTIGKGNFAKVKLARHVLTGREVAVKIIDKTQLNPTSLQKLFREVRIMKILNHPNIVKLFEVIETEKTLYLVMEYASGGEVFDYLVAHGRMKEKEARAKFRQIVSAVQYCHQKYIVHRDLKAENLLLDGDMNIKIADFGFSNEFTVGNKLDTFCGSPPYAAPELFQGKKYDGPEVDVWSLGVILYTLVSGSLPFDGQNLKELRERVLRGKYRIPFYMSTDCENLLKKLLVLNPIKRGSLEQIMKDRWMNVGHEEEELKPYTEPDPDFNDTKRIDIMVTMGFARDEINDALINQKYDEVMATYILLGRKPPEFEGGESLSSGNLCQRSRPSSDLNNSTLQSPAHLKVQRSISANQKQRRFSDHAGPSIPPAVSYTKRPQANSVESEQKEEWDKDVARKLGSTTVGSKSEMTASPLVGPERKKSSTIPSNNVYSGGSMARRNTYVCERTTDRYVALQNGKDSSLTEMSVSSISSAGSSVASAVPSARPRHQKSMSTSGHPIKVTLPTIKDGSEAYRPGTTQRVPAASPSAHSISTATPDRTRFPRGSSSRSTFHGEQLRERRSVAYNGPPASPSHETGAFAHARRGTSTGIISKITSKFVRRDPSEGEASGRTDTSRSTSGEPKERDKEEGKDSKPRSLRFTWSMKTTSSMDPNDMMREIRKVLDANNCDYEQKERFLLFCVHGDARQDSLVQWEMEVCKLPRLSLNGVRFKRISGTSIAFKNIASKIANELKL
Chain of UniProt P49674 (whole entry, looked up): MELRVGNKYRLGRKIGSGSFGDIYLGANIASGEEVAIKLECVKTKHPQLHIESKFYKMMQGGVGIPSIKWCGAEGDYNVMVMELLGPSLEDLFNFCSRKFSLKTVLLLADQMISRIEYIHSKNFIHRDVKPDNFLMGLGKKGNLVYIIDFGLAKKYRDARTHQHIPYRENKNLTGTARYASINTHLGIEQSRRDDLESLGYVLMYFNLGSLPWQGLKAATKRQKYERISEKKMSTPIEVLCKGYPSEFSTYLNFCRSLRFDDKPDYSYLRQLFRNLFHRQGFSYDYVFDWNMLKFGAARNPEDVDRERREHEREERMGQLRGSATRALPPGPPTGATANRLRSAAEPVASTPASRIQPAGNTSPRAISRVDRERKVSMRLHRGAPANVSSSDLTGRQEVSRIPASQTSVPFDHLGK
Chain of UniProt P29317 (whole entry, looked up): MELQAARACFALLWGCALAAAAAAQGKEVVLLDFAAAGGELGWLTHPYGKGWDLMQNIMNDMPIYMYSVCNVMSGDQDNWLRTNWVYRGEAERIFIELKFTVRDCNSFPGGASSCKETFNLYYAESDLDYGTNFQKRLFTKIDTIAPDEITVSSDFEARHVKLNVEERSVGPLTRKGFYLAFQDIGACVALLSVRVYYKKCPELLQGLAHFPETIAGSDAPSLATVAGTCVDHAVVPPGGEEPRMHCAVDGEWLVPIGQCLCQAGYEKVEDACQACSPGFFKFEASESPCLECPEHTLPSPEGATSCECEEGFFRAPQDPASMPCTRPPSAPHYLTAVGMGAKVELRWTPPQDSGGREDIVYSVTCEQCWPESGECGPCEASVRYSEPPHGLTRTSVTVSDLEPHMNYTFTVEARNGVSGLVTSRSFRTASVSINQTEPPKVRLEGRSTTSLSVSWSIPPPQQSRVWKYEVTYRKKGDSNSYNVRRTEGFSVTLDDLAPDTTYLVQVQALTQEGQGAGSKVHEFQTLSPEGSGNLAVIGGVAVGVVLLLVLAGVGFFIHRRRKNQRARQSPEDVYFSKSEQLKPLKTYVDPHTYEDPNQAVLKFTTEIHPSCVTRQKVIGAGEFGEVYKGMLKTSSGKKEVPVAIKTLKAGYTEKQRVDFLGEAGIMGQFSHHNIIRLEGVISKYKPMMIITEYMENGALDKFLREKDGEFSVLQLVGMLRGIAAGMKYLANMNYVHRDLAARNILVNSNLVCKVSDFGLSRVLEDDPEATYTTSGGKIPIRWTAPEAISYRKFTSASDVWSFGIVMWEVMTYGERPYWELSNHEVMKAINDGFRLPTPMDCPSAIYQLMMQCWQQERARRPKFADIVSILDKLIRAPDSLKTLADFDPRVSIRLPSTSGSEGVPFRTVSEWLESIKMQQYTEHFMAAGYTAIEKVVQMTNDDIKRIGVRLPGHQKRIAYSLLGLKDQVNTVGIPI
Chain of UniProt Q14012 (whole entry, looked up): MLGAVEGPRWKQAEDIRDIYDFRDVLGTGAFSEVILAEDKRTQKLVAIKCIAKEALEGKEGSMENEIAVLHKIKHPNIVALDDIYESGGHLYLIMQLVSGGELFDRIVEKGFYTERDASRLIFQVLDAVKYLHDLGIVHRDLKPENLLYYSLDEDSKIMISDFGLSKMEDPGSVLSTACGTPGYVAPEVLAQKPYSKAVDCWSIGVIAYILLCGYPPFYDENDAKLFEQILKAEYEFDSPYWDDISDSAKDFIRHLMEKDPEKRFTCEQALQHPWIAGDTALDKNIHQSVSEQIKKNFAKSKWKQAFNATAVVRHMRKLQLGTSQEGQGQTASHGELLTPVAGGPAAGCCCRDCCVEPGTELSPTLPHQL
Chain of UniProt P48730 (whole entry, looked up): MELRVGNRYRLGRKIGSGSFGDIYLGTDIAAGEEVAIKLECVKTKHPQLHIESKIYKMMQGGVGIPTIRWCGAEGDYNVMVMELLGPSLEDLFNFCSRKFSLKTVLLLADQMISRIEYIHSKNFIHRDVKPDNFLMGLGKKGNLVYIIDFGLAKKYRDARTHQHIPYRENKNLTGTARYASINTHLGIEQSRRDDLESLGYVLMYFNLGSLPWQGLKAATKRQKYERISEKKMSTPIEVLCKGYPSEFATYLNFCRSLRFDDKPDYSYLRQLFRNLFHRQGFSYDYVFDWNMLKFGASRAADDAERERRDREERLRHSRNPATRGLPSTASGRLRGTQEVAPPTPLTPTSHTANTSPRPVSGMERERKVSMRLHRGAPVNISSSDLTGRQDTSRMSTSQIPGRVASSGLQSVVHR

Series 1 — read-out: cell-free assay; technique: competition with immobilised ligand; tested at: 1 µM
Compound: O=C1NC(c2ccccn2)Sc2ccccc21 (centres unmarked)
target | remaining binding [%]
Phosphatidylinositol 5-phosphate 4-kinase type-2 beta (PIP4K2B, Homo sapiens, UniProt P78356) | 100
Aurora kinase A (AURKA, Homo sapiens, UniProt O14965) | 93
Serine/threonine-protein kinase PAK 1 (PAK1, Homo sapiens, UniProt Q13153) | 96
Tyrosine-protein kinase ABL1, phosphorylated (ABL1, Homo sapiens, UniProt P00519, Y253F) | 69
Discoidin domain-containing receptor 2 (DDR2, Homo sapiens, UniProt Q16832) | 100

Series 2 — cell line: HEK293T ATF4-firefly luciferase reporter; read-out: integrated stress response; refers to: ATF4; reference: DMSO
Compound: c1ccc2c(-c3nn4c(-c5ccncc5)nnc4s3)c[nH]c2c1
setting | reporter signal
10 µM, without ISRIB | 226% and 174% and 202% and 205%
10 µM, together with: ISRIB | 98.6% and 106% and 90.6% and 120% and 109% and 116%
1 µM, together with: ISRIB | 83.7% and 81.5% and 81.4% and 83.2% and 94.2% and 79.3% and 87.5% and 80.9%

Series 3 — technique: immunohistochemistry; host: human; sample: tumour biopsy; route: oral; time: cycle 1 day 28; direction: direction not given
Structure (SMILES): COc1ccc(-c2c(Nc3ccccn3)[nH]c3c(C4=CCCCC4)c(-c4ccccc4)nn3c2=O)cc1
setting | SDMA H-score
100 mg once daily | 40
200 mg once daily | 1
50 mg once daily | 85 and 125 and 145

Series 4 — cell line: HaCaT; tested at: 100 µM; time: 18 h
Compound | viability
CO/N=C(\C(=O)N[C@@H]1C(=O)N2C(C(=O)O)=C(COC(C)=O)CS[C@H]12)c1csc(N)n1 | 107%
CCOC(=O)[C@H](CCc1ccccc1)N[C@@H](C)C(=O)N(CC(=O)O)C1Cc2ccccc2C1 | 46.9%
Clc1ccc(C(Cn2ccnc2)OCc2csc3c(Cl)cccc23)c(Cl)c1 (centres unmarked) | 16.6%
COc1ccc(/C=C/C(=O)Nc2ccccc2C(=O)O)cc1OC | 59.8%
CN1CCN2c3ncccc3Cc3ccccc3C2C1 (centres unmarked) | 97.9%

Series 5 — host: human; sample: microsomes or S9; tested at: 2 µM; time: 0.5 h
Compound | remaining compound
CNC(=O)N1CCc2cc(S(=O)(=O)Nc3ccc(Cl)cc3)ccc21 | 52.5%
COC(=O)c1ccccc1NC(=O)c1c(OC)cc(=O)n2c1CCCC2 | 40.7%
COc1ccc(N(C)S(=O)(=O)c2cc3c(cc2Cl)Oc2ccccc2NC3=O)cc1 | 54.5%
CNC1=C(c2cc(C)cc(C)n2)C(=O)C(c2ccccc2Cl)O1 (centres unmarked) | 58.8%

Series 6 — read-out: enzyme activity; action: inhibitor; tested at: 0.5 µM; reference: control
SMILES: Cn1cc(/C=C2\C(=O)Nc3ccc(S(N)(=O)=O)cc32)c2ccccc21
target | remaining activity [%]
Tyrosine-protein kinase Fes/Fps (FES, Homo sapiens, UniProt P07332) | 57.4
Casein kinase I isoform delta (CSNK1D, Homo sapiens, UniProt P48730) | 102
Mitogen-activated protein kinase kinase kinase 20 (MAP3K20, Homo sapiens, UniProt Q9NYL2) | 95
Serine/threonine-protein kinase PAK 6 (PAK6, Homo sapiens, UniProt Q9NQU5) | 90.1
Receptor tyrosine-protein kinase erbB-2 (ERBB2, Homo sapiens, UniProt P04626) | 120
Tyrosine-protein kinase JAK2 (JAK2, Homo sapiens, UniProt O60674) | 58.4
Ephrin type-A receptor 6 (EPHA6, Homo sapiens, UniProt Q9UF33) | 30.2
Dual specificity tyrosine-phosphorylation-regulated kinase 1A (DYRK1A, Homo sapiens, UniProt Q13627) | 92.2
Ephrin type-B receptor 3 (EPHB3, Homo sapiens, UniProt P54753) | 93.2
Tyrosine-protein kinase Yes (YES1, Homo sapiens, UniProt P07947) | 24.2
Dual specificity protein kinase CLK1 (CLK1, Homo sapiens, UniProt P49759) | 88.3
Serine/threonine-protein kinase PAK 4 (PAK4, Homo sapiens, UniProt O96013) | 86.2
Casein kinase I isoform epsilon (CSNK1E, Homo sapiens, UniProt P49674) | 89
Ephrin type-A receptor 2 (EPHA2, Homo sapiens, UniProt P29317) | 93
Calcium/calmodulin-dependent protein kinase type 1 (CAMK1, Homo sapiens, UniProt Q14012) | 75.7
SRSF protein kinase 1 (SRPK1, Homo sapiens, UniProt Q96SB4) | 69
Cyclin-dependent kinase 5, with p35 (CDK5, Homo sapiens, UniProt Q00535) | 55.8
Cyclin-dependent kinase 2, with cyclin E (CDK2, Homo sapiens, UniProt P24941) | 77.9
Serine/threonine-protein kinase PAK 1 (PAK1, Homo sapiens, UniProt Q13153) | 90.8
Serine/threonine-protein kinase MARK1 (MARK1, Homo sapiens, UniProt Q9P0L2) | 40.4
Tyrosine-protein kinase JAK1 (JAK1, Homo sapiens, UniProt P23458) | 83.9
Calcium/calmodulin-dependent protein kinase kinase 1 (CAMKK1, Homo sapiens, UniProt Q8N5S9) | 44.9
Tyrosine-protein kinase Tec (TEC, Homo sapiens, UniProt P42680) | 157

Series 7 — organism: Sarcocystis neurona; technique: HTS; tested at: concentration not given
SMILES | activity
COc1cc(NC(C)CCCN)c2ncccc2c1.O=P(O)(O)O.O=P(O)(O)O (centres unmarked) | active
Cl.O=C1[C@H]2CCCC[C@H]2C(=O)N1CCCCN1CCN(c2nsc3ccccc23)CC1 | active
Cc1c(C(=O)NN2CCCCC2)nn(-c2ccc(Cl)cc2Cl)c1-c1ccc(I)cc1 | active

Mixed results
Structure (SMILES) | test system | measurement | result
CCOC(=O)[C@@H]1CSCC(=O)N[C@H](CC)C(=O)N(C)[C@@H](C)C(=O)N[C@@H](CC(C)C)C(=O)N2CCC[C@H]2C(=O)N(CC(C)C)CC(=O)N[C@@H](CC(C)C)C(=O)N(C)[C@@H](C)C(=O)N[C@@H](CC(C)C)C(=O)N1C | hydrocarbon/water | logD | 0.905
